Measurements from different studies.
Each numbered part is a random draw from the data of one study; scales do not carry over between parts. Changes are numbered by the printed parent chain.

Set 1 — method: protein binding microarray; molecule type: double-stranded DNA, one strand shown; sample: in vitro; tested at: not given; relative to: not given; direction: higher = stronger binding; quantity: E-score
Target: Histone acetyltransferase KAT6A, both winged helices, GST fusion (KAT6A, Homo sapiens, UniProt Q92794, residues 1-181)
Setting: 8-mer, flanks averaged, mean of 2 arrays, mostly near background
Residues (chain): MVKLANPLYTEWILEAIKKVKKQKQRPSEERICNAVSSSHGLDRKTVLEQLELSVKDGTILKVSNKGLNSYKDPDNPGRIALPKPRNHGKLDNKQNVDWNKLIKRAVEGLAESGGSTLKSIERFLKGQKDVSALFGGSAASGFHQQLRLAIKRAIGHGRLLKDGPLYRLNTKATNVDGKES
GCGTGTAA: 0.103
AGGAATGC: -6e-05
AAGCAAAG: -0.0844
ACGACGAA: -0.0979
CCATTAGA: -0.172
GTGATCGA: -0.0482
GACCCGGA: 0.127
ACAAAGCC: -0.0377
GAAGCTCA: -0.0739
GAAGCCTC: -0.116
AAGTCGAG: -0.138
TGGAAACA: -0.123
CCAAGGTC: -0.176
CCCCTTCG: -0.134
GACAAGAC: 0.0621
ATGGCTGC: -0.05
CCTCAGGC: -0.0778
TCCTCCGA: -0.0716
CATAGTCG: 0.0951
GGTGACTA: -0.0772
TATGGTAA: 0.0455
CCTACGCA: -0.0513
GCCGAGAC: 0.164
GCTGACAC: 0.0189
GTAGAACA: -0.14

Set 2 — method: RNA Bind-n-Seq; molecule type: RNA; sample: in vitro; tested at: 365 nM; relative to: no-protein control; direction: higher = stronger binding; quantity: RBNS enrichment (R)
Target: RNA binding protein fox-1 homolog 2, RRM domain, GST-SBP tag (RBFOX2, Homo sapiens, UniProt O43251-10, residues 100-194)
Setting: natural RNA segment, single round, ends assumed
Shared flanks, not repeated: GGGAGUUCUACAGUCCGACGAUC … UGGAAUUCUCGGGUGCCAA
Residues (chain): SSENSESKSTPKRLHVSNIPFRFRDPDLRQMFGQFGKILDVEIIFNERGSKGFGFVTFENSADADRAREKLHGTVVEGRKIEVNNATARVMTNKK
UUGCGUGUGUGUAGAUGAGGGGCGGGGGACGGGCGCCAGGCAUUGUCCAGACCUGGUCGGGGCCCACUGGAAGCAUCCAGAACAGCACCACCAUCUAGCGGCCGCUCGAG: 0.646
UCUGCUUCUCUGUAUUUUUCUUCUGUUAUCCCUGGGGGUGCUCAGGUUCACUUGAUUGUCUGUAUUUCUGUGUGGUUGUAGCAAGGACUCAGCCUCAUGUAGCACGAAUA: 0.975
CUAACCCUGUGGAAGCAUGGCUGUCUGCACAGAGGGUCCCAUUGUGCAGAAAAGCUCAGAGUAGGUGGGUAGGAGCCCUUCUCUUUGACUUAGGUUUUUAGGAGUCUGAG: 1.12
CCCUUCUUACCCGAGUGCCUCCUGCUUCCUCCGAGGCCCAGGGGGACUCAUAUCCAAUGGCUCCUAAGUGUUUGUCCUGUGCAAUAUACAGCCCAGGGAGGGAAGGGAAG: 0.219
UCACAGGAGCACAGGCUGUACCACCACAAGGAGCCUCAGAGCGGCCAGUGAGGAAAGGGGAGAGAGCAGAGCUUGCUGUCAGAGGCCAGGCUCCCAGUGCAGCCUCCUCU: 0.287
UUUCUUCAAGAGGAAACAUAUUCUGUCCGAAGGAAACUGUAGUGCGAGCCCAGAGUGUUCAAAGGCGCCAAGGUCCUGGCAGGUUACAAAGGGUUUUGUGUUGGCAUGAG: 1.3
AAAUAUGAAUGGACCCAUUUCAAGAACAAGUUCUAGUAUCCCUGCUAAUAAUCCUUUAGUUACUCAGCUGCUCCAGGGCAAAGAUGUUCCCUUGGAGCAAAUUCUGCCUA: 0.394
AGAUGGGUAGAGUUGGGUUCUUGAGUUUUACCACCACUUAGUUCCCACUGAAUUUUGUAACUUCCUGUGUUUGCAUCCUCUGUUCCUAUUCUGCCCUUGCUCUGUGUCAU: 2.01
UUUCCUAAAAGCAUCCUUCAUCUGCAUUCCAUCCUGGGUCAGCAUCAACCACAACAUAGCAGGCAUUCCCUUGCAGCUGCAGUACAGUAGCAGUGUCCUUUUCUGAGGAA: 1.89
UAUGGUAUGACUUGAAUCAGUUUUGAUUCUAUGUGUAAGUUCUCAUCGUUUGGAACCUGGUAUUUCUGUUGUGUUCUUGGCAGUGCAUAGGAACCCAGCCUCCUGUGUUU: 0.449
ACUUGGAAAAACUCAUUUCUGUGCUGCAAAGCAAUGGUGGGGAGGCGCAGUGCCGCGACUGCUGUAGUGGUUUCUAGCCAAUAAUAAAACUUUAAUUGGUUGUUCAGUUG: 0.266
ACCUGUGUAUUUAUCCUUGAUCAUAGUUUGCUUAUUUAUGUUUAACUCUUCGGACUUCAGAGCACUUUAUGUAGUUGAAUAAACCCUAGAGGUUGAGGUGACUAAAAGGU: 0.45

Set 3 — method: universal PBM; molecule type: double-stranded DNA, one strand shown; sample: in vitro; tested at: not given; direction: higher = stronger binding; quantity: E-score
Target: Sal-like protein 4, full length isoform B (SALL4, Homo sapiens, UniProt Q9UJQ4-2, residues 1-616)
Setting: 8-mer, flanks averaged, mean of replicates
ATATAGGC: 0.261
GGTTTCAA: 0.00597
GAGTTATC: 0.151
CCGCGGCC: -0.382
AAAATCGA: 0.0237
TAATTTCA: 0.366
CTACGTTC: 0.00834
AGGCGTCG: -0.21
AAACTGGT: -0.106
ATGTTCCA: 0.0525
CCGATAGA: -0.0971
CTATATCC: 0.0604
AAATACAC: 0.161
AAGGGTGC: -0.131
CAGAAACA: 0.142
TCAGTCGA: -0.0654
GCCTTGTA: 0.0697
AATCTGAA: 0.165
AAGCGGCA: -0.179
GCGTACGA: -0.0475
CTATTAGA: 0.17
CTGTTACC: -0.0138
GGTAGGAC: -0.222

Set 4 — target: CCND1, cyclin fold, Cln2 fusion (human); method: yeast growth competition, sequencing; sample: yeast; setting: weak parent motif; relative to: not given; direction: higher = stronger binding; quantity: normalised enrichment score
Parent: ANKRD17 docking peptide (human); PSVRRQLFVTVVK; partner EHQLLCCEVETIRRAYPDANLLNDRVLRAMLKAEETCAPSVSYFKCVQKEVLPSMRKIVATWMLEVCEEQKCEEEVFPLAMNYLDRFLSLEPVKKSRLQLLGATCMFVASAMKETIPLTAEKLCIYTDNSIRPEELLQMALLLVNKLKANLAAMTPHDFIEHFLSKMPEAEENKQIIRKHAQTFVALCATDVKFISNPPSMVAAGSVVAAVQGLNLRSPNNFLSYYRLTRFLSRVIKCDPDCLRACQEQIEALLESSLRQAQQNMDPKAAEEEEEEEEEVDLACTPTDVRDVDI
PSVRRQLFVAVVK [T10A]: 0.796
PAVRRQLFVTVVK [S2A]: 0.296
PSVRRALFVTVVK [Q6A]: -0.179
PSVRKQLLVTVVK [R5K F8L]: 0.541
PSVRAQLFVTVVK [R5A]: 0.735
ASVRRQLFVTVVK [P1A]: 0.318
PSVRRQLFVTVAK [V12A]: 0.553

Set 5 — method: protein-binding microarray; molecule type: double-stranded DNA, one strand shown; sample: in vitro; tested at: 2200 nM top; setting: 60-bp whole probe; together with: salmon DNA 0.4 mg/ml; relative to: random background probes; direction: higher = stronger binding; quantity: fitted relative affinity; shared flanks, not repeated: GCCTAGCAC … GTCTTGATTCGCTTGACGCTGCTG
Target: Interferon regulatory factor 7, full length, phosphomimetic (IRF7, Homo sapiens, UniProt Q92985, residues 1-503, S471D/S472D/S475D/S476D/S477D/S483D/S484D/S487D)
Sequence of UniProt Q92985 (whole entry, unmodified, looked up): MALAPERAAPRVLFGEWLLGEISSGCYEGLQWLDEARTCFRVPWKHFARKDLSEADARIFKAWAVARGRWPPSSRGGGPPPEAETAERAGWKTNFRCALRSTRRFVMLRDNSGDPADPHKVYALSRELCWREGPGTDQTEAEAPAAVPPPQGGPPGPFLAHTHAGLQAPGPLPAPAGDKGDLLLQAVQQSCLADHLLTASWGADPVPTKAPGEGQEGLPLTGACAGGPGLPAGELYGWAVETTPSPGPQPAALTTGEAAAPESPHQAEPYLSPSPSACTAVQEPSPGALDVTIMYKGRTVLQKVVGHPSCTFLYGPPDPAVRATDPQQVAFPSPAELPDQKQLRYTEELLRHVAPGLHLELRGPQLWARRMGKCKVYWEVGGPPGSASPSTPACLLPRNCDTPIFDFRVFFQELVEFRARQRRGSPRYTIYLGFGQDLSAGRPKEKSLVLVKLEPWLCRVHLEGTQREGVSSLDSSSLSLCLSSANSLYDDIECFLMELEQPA
TCCCCTCTAGGTTCTCTGAAGGTGCTA: 0.434 z-score
TAAGAACTGAGTATCGATTAGTGCTAG: -0.507 z-score
TCAAAAAATGGAAATCTAACTGTGCTA: -1.39 z-score
TCATGTATGGATGTGTTACTGTGCTAG: 1.32 z-score
GACGATTCCAGTTTCGAGACGTGCTAG: 4.23 z-score
GACTGACTGGACTATCGGGACGTGCTA: -0.242 z-score
TTAGGTCTCCCTCTCCTTTAGTGCTAG: 0.741 z-score
TTAGGTTCCCTTTTGCTTTAGTGCTAG: 3.16 z-score
TTAGATTTCAGTTCCGAATAGTGCTAG: 1.54 z-score
TTAGGACTGGGTATCGGTAAGTGCTAG: -0.347 z-score
TTAGATATCGGGTATTGATTAGTGCTA: 0.148 z-score
GACGGACTGGGGGCTGGGGACGTGCTA: -0.0948 z-score
GACGAACTGGGGACTGGTGACGTGCTA: -0.213 z-score
TTAGGTACCGGTATCGGTTAGTGCTAG: 0.414 z-score
TGAGATCTCAGACTGGATTAGTGCTAG: -0.0553 z-score
TTAGGTTACCTTTTCCTTTAGTGCTAG: 1.8 z-score
TTAGGTTCCGACTTTCGGTTAGTGCTA: 6.25 z-score
TCACCCCTAGGGGGCAGTATGTGCTAG: 0.193 z-score
TTAGGTCTCGTACTGGGTTAGTGCTAG: 0.309 z-score
TCAGTTTCGTATCTTCATTGTGTGCTA: 7.96 z-score
CTTTCTATCTCTGTTTTTGCGTGCTAG: 3.55 z-score
GGCTCTCTGGACTGTGTGTTTGTGCTA: 0.123 z-score
TTAGGTATCGGTATCGTTTAGTGCTAG: 0.936 z-score
GACGGTCTCGGTATCCGGACGTGCTAG: 0.667 z-score
TTCGGTATCGGACTGGGTTAGTGCTAG: 0.649 z-score

Set 6 — method: protein-binding microarray; molecule type: double-stranded DNA, one strand shown; sample: in vitro; tested at: 0.8 µM; setting: whole 60-bp probe, no competitor; direction: higher = stronger binding; quantity: fluorescence intensity; shared flanks, not repeated: … GTCTTGATTCGCTTGACGCTGCTG
Target: Centromere-binding protein 1, full length, N-terminal tag (CBF1, Saccharomyces cerevisiae, UniProt P17106, residues 1-351)
Sequence of UniProt P17106 (whole entry, looked up): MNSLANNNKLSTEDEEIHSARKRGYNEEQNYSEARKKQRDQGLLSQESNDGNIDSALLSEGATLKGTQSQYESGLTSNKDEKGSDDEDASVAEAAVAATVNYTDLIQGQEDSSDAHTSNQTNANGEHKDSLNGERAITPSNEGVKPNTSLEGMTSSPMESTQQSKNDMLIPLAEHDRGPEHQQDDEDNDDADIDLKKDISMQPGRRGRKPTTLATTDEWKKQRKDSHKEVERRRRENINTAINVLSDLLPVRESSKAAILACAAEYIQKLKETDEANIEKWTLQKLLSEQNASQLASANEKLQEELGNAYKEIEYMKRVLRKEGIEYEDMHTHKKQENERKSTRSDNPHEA
GAATTTTTGCATCATCATGATCATACATGCTTTTAG: 594 a.u.
CTAAAACAATGGAAACATCAGAAAGATATTTATTTC: 617 a.u.
CTAATGTGGAAATGGCATGACACCCCCCCACACTTC: 522 a.u.
CTATCGGGAGGTCAATTGGTGGTGCCGGTTGTGTTC: 454 a.u.
CTAACTAGTGTAACTGCTGATGTCTTCCATTTGTTC: 522 a.u.
GAAGATGGACAGCACCGTGTGACTGAGTCTATATAG: 584 a.u.
CTATCGTGGTCCTCTCATGTCACGTCAAAATTTTTC: 702 a.u.
GAACTTCGTTCGAAAAACATCAGAGCCGTACTGTAG: 527 a.u.
CTATAAGGCCATTGTCACCTTCGGCCAGCGATATTC: 508 a.u.
GAATACATACGTACTCTCGTGCAAGGAAAAATATAG: 648 a.u.
CTAAATCCCAGACGTCGCGTGCTAAAAATCCTTTTC: 737 a.u.
CTAGCAACACACGTAATCATGACTAATGGTTGCTTC: 547 a.u.
CTATCAGATTCTGGTCATGCTTGTTCAATATACTTC: 741 a.u.
CTACGTTTACGCTCGCGCGTGGGCTAACTAACGTTC: 543 a.u.
CTATGGTCATCACAACCATCAGCGGTGACAATATTC: 528 a.u.
CTATAAGCTTGGCGTGATGTGATATATACTTGTTTC: 630 a.u.

Excerpt of the above (set 3):
CAGAAACA: 0.142
CTATATCC: 0.0604
CTGTTACC: -0.0138
GAGTTATC: 0.151
CTACGTTC: 0.00834
TAATTTCA: 0.366
AAACTGGT: -0.106
ATGTTCCA: 0.0525
GGTAGGAC: -0.222
AATCTGAA: 0.165
TCAGTCGA: -0.0654
